Measurements collected from several papers.
Compare with care: the assays were run in different laboratories. ± marks the error that the study gave.

O=c1cc(-c2ccc(O)cc2)oc2cc(O)cc([O][Ga+][O]c3cc(O)cc4oc(-c5ccc(O)cc5)cc(=O)c34)c12 — inhibition (Pseudomonas aeruginosa; elastase secretion, elastin-Congo red; 0.08 µM, 20 h): 53%
O=[N+]([O-])c1ccc(/N=N/c2ccc(N(CCS(=O)(=O)O)CCS(=O)(=O)O)cc2)cc1 — UV-vis absorption change (Cu2+ binding; methanol; concentration not given, added: Cu2+ 0.5 mM, 1 equiv): no effect
C[C@H](NC(=O)[C@H](CCCNC(=N)N)NC(=O)[C@H](CCCCN)NC(=O)[C@H](C)NC(=O)[C@H](Cc1c[nH]cn1)NC(=O)[C@H](CO)NC(=O)[C@@H](N)CC(=O)O)C(=O)N[C@@H](Cc1c[nH]cn1)C(=O)NCC(=O)N[C@@H](Cc1ccc(O)cc1)C(=O)N[C@@H](CCCCN)C(=O)N[C@@H](CCCNC(=N)N)C(N)=O — log β2 Cu(I) (pH 7.4, 2:1 peptide:Cu(I) complex, added: ferrozine competitor): 10.1
CS(=O)(=O)c1ccc(-c2nnc(/C=C/c3nnc(-c4ccc(C#N)cc4)o3)n2-c2ccccc2Cl)nc1 — reporter activity (HEK-293T; TCF/LEF reporter gene, luciferase; concentration not given, 30 h, added: L-Wnt3A conditioned medium): decreased
CC[C@H](C)[C@H](NC(=O)[C@@H](NC(=O)[C@H](Cc1ccc(O)cc1)NC(=O)[C@H](CCCCN)NC(=O)[C@H](CCCCN)NC(=O)[C@H](CC(C)C)NC(=O)[C@H](CC(=O)O)NC(=O)[C@H](Cc1ccc(O)cc1)NC(=O)[C@H](CCC(N)=O)NC(=O)[C@H](CCCCN)NC(=O)[C@@H](NC(=O)[C@H](Cc1ccccc1)NC(=O)[C@H](CCCCN)NC(=O)[C@H](CCCCN)NC(=O)[C@H](Cc1c[nH]c2ccccc12)NC(=O)[C@H](CCCCN)NC(=O)[C@H](CCSC)NC(=O)[C@H](CCCNC(=N)N)NC(=O)[C@H](CCCNC(=N)N)NC(=O)[C@H](CC(N)=O)NC(=O)[C@H](CCC(N)=O)NC(=O)[C@H](Cc1ccccc1)NC(=O)[C@H](Cc1c[nH]c2ccccc12)NC(=O)[C@@H](NC(=O)[C@H](CCCCN)NC(=O)[C@@H](NC(=O)[C@H](CCC(N)=O)NC(=O)[C@@H](N)CCCNC(=N)N)[C@@H](C)CC)[C@@H](C)CC)[C@@H](C)CC)[C@@H](C)CC)C(=O)O — maximum caspase-positive parasites (Plasmodium falciparum; caspase-like protease activation; 90 µM, 4 to 12 h): ~70%
C[C@H](NC(=O)[C@H](Cc1c[nH]cn1)NC(=O)[C@H](CO)NC(=O)[C@@H](N)CC(=O)O)C(=O)N[C@@H](CCCCN)C(=O)N[C@@H](CCCNC(=N)N)C(=O)N[C@@H](Cc1c[nH]cn1)C(=O)N[C@@H](Cc1c[nH]cn1)C(=O)NCC(=O)N[C@@H](Cc1ccc(O)cc1)C(=O)N[C@@H](CCCCN)C(=O)N[C@@H](CCCNC(=N)N)C(=O)N[C@@H](CCCCN)C(=O)N[C@@H](Cc1ccccc1)C(=O)N[C@@H](Cc1c[nH]cn1)C(=O)N[C@@H](CCC(=O)O)C(=O)N[C@@H](CCCCN)C(=O)N[C@@H](Cc1c[nH]cn1)C(=O)N[C@@H](Cc1c[nH]cn1)C(=O)N[C@@H](CO)C(=O)N[C@@H](Cc1c[nH]cn1)C(=O)N[C@@H](CCCNC(=N)N)C(=O)NCC(=O)N[C@@H](Cc1ccc(O)cc1)C(=O)O — log β2 Cu(I) (pH 7.4, 1:2 peptide:Cu(I) complex, added: ferrozine competitor): 15.4 ± 0.2
O=c1cc(-c2ccccc2)oc2cc(O)cc([O][Ga+][O]c3cc(O)cc4oc(-c5ccccc5)cc(=O)c34)c12 — inhibition (Pseudomonas aeruginosa; elastase secretion, elastin-Congo red; 0.08 µM, 20 h): 81%
O=c1[nH]c(N2CCC3(CC2)CN(CCO)c2cc(F)cc(F)c23)nc2c1CCCC2 — reporter activity (HEK-293T; TCF/LEF reporter gene, luciferase; concentration not given, 30 h, added: L-Wnt3A conditioned medium): decreased
C[N+]1(CC(=O)OC2CCCCCCCCCCC2)CCCCC1 — AR transcriptional activity (LNCaP expressing AR-V7; inhibitor, luciferase reporter; concentration not given, 8 h): inhibited

For quick reference, copied from above:
C[C@H](NC(=O)[C@H](CCCNC(=N)N)NC(=O)[C@H](CCCCN)NC(=O)[C@H](C)NC(=O)[C@H](Cc1c[nH]cn1)NC(=O)[C@H](CO)NC(=O)[C@@H](N)CC(=O)O)C(=O)N[C@@H](Cc1c[nH]cn1)C(=O)NCC(=O)N[C@@H](Cc1ccc(O)cc1)C(=O)N[C@@H](CCCCN)C(=O)N[C@@H](CCCNC(=N)N)C(N)=O — log β2 Cu(I) (pH 7.4, 2:1 peptide:Cu(I) complex, added: ferrozine competitor): 10.1
